Experimental data gathered from unrelated publications.
Compare with care: the assays were run in different laboratories.

Cc1cc(NC2CCN(C(=O)OC3CCN(C(=O)/C=C/CN(C)C)C3)CC2)n2ncc(C(C)C)c2n1 (stereo not drawn)  patients with adverse event (Phase I dose escalation CTCAE v4.0, item: maculo-papular rash; patients with advanced solid tumours; dose not given, QD dosing grade 3 or higher): 0%
O=C(Nc1nc2cccc(-c3ccc(CN4CCS(=O)(=O)CC4)cc3)n2n1)C1CC1  patients with adverse event (item: bile reflux into stomach; rheumatoid arthritis patients; oral, 75 mg once daily, 4 weeks, any relatedness): 4.5%
Cc1cc(-c2nnc(N)nc2-c2ccc(F)cc2)cc(Cl)n1  patients with immune-mediated AE (item: Arthritis; IO-naive mCRPC patients, male; oral, dose not given, treatment-related, grade ≥3): 0%
C[C@@H](c1ccc2nccn2c1)n1nnc2ncc(-c3cnn(C)c3)nc21  patients with adverse events (item: treatment-related grade ≥3 Paronychia; EGFR-mutant MET-altered NSCLC; oral, dose not given, all): 2%
COc1cc(Nc2ncc3c(n2)-c2ccc(Cl)cc2C(c2c(F)cccc2OC)=NC3)ccc1C(=O)O  patients with increased creatinine (cancer patients; oral, dose not given, grade 1 any attribution, with: pembrolizumab): 17%
CNC(=O)c1cc(Oc2ccc(NC(=O)Nc3cc(C(C)(C)C)nn3-c3ccc4ncccc4c3)c(F)c2)ccn1  patients with musculoskeletal disorders (patients; oral, dose not given, cycles 1 and 2, High AUC subgroup): 50%
FC(F)(F)c1ccc(CNc2ccc(Cc3c[nH]c4ncc(Cl)cc34)cn2)cn1  patients with treatment-related adverse event (item: skin hypopigmentation; patients with TGCT; oral, 1000 mg/day, all grades): 15%
CNC(=O)c1ccc(-c2cnc3ncc(Cc4ccc5ncccc5c4)n3n2)cc1F  patients with adverse event (item: Pruritus; cancer patients; oral, 600 mg twice daily, all expansion cohorts, grade 3-4): 0%
C=CC(=O)NC1CCN(c2ncc3ncnc(Nc4ccc(Oc5ccc6c(c5)ncn6C)c(C)c4)c3n2)CC1  patients with Alopecia (male patients; oral, dose not given, on-treatment adverse events): 0%

Some of these lines once more:
Cc1cc(-c2nnc(N)nc2-c2ccc(F)cc2)cc(Cl)n1  patients with immune-mediated AE (item: Arthritis; IO-naive mCRPC patients, male; oral, dose not given, treatment-related, grade ≥3): 0%
